Published values pooled from the literature.
Compare with care: the assays were run in different laboratories. Several values in a cell are separate wells, animals, samples, runs or records. ± marks the error that the study gave.

SMILES | test | test system | setting | tissue uptake
CCCC[C@H](NC(=O)CNC(=O)CNC(=O)CN1CCN(CC(=O)O)CCN(CC(=O)O)CC1)C(=O)N[C@H]1CC(=O)NCCCC[C@@H](C(N)=O)NC(=O)[C@H](Cc2c[nH]c3ccccc23)NC(=O)[C@H](CCCNC(=N)N)NC(=O)[C@@H](Cc2ccccc2)NC(=O)[C@H](Cc2c[nH]cn2)NC1=O [gallium-67 labelled] |  | female C57 mice, B16/F1 melanoma, pancreas | intravenous, 0.037 MBq, 2 h | 0.54 ± 0.13 %ID/g
CN1C(=O)[C@@H](Cc2ccc(O)c(I)c2)NC(=O)CNC(=O)[C@H](Cc2ccc3ccccc3c2)NC(=O)[C@H](CCCNC(=N)N)NC(=O)[C@H]1CCCNC(=O)c1ccc(CNC(=O)CN2CCN(CC(=O)O)CCN(CC(=O)O)CCN(CC(=O)O)CC2)cc1 [lutetium-177 labelled] | refers to: 177Lu radioactivity | female CB-17 SCID mice, Daudi xenograft, large intestine | intravenous, 0.16 nmol per mouse, 6 h | 0.5 ± 0.16 %ID/g
NC12CNCCNCC(NCc3ccc(CNC(=O)CCCC(=O)NCc4ccc(-c5nncnn5)cc4)cc3)(CNCCNC1)CNCCNC2.[64Cu+2] |  | athymic nude mice SW1222 xenograft, kidney | 1 h post injection, 24 h accumulation interval, with: huA33-TCO pretargeting | 3.08 %ID/g and 3.1 %ID/g
CCCC[C@H](NC(=O)CN1CCC(NC(=O)CN2CCN(CC(=O)O)CCN(CC(=O)O)CCN(CC(=O)O)CC2)CC1)C(=O)N[C@H]1CC(=O)NCCCC[C@@H](C(N)=O)NC(=O)[C@H](Cc2c[nH]c3ccccc23)NC(=O)[C@H](CCCNC(=N)N)NC(=O)[C@@H](Cc2ccccc2)NC(=O)[C@H](Cc2c[nH]cn2)NC1=O [gallium-68 labelled] |  | male C57BL/6J mice, B16-F10 tumours, pancreas | intravenous, 1 h, blocking study, with: 100 µg non-radioactive Ga-peptide | 0.7 ± 0.5 %ID/g
O=C([O-])CN1CCN(CC(=O)[O-])CCN(CC(=O)[O-])CCN(CC(=O)[O-])CC1.[64Cu+2] |  | healthy athymic nude mice, skin | intravenous, 24 h | 0.17 %ID/g
N#C[C@@H]1CCCN1C(=O)CNC(=O)c1ccnc2ccc(OCCCN3CCN(C(=O)CCc4ccc5c(c4)CN4CCN6CC(=O)[O][68Ga-]([O]C(=O)C4)([O]5)[O]c4ccc(CCC(=O)N5CCN(CCCOc7ccc8nccc(C(=O)NCC(=O)N9CCC[C@H]9C#N)c8c7)CC5)cc4C6)CC3)cc12 |  | BALB/c nude mice, U-87 MG xenograft, tumour | 1 h, blocked 60 min, with: DOTA-FAPI-04 40 nmol co-injected | 3.05 ± 0.61 %ID/g
CC(C)[C@H](NC(=O)[C@@H]1CCCN1C(=O)[C@H](CCCNC(=N)N)NC(=O)[C@H](CS)NC(=O)[C@H](Cc1c[nH]c2ccccc12)NC(=O)[C@H](CCCNC(=N)N)NC(=O)[C@@H](Cc1ccccc1)NC(=O)[C@H](Cc1c[nH]cn1)NC(=O)[C@H](CCC(=O)O)NC(=O)[C@H](CS)NC(=O)[C@H](CS)NC(=O)CNC(=O)[C@@H]1CC(=O)N[C@@H](CCCNC(=N)N)C(=O)NCC(=O)N[C@@H](CC(=O)O)C(=O)N[C@H](Cc2ccc(O)cc2)C(=O)N1)C(N)=O [technetium-99m labelled] |  | C57 mice B16/F1 melanoma female, intestines | iv, 0.037 MBq, 24 h | 1.44 ± 0.78 %ID
CCCC[C@@H]1NC(=O)[C@@H](NC(=O)[C@H](CCC(=O)O)NC(=O)CNC(=O)CN2CCN(CC(=O)O)CCN(CC(=O)O)CCN(CC(=O)O)CC2)CCCCNC(=O)C[C@@H](C(N)=O)NC(=O)[C@H](C(C)C)NC(=O)[C@@H]2CCCN2C(=O)[C@H](CCCNC(=N)N)NC(=O)CNC(=O)[C@H](Cc2c[nH]c3ccccc23)NC(=O)[C@H](CCCNC(=N)N)NC(=O)[C@@H](Cc2ccccc2)NC(=O)[C@H](Cc2c[nH]cn2)NC(=O)[C@H](CCC(=O)O)NC1=O [gallium-67 labelled] |  | normal C57 mice, liver | intravenous, 0.037 MBq, 2 h | 0.46 ± 0.03 %ID/g
O=C([O-])CN1CCN(CC(=O)[O-])CCN(CC(=O)NCCc2ccc3c(c2)C2C=CCC2C(c2cc4c(cc2Br)OCO4)N3)CCN(CC(=O)[O-])CC1.[111In+3] (stereo not shown) |  | mice with Hec50 tumour xenograft, urinary bladder | 0.5 h | 4.13 ± 0.39 %ID/g
CCCC[C@H](NC(=O)CNC(=O)CNC(=O)CN1CCN(CC(=O)O)CCN(CC(=O)O)CCN(CC(=O)O)CC1)C(=O)N[C@H]1CC(=O)NCCCC[C@@H](C(N)=O)NC(=O)[C@H](Cc2c[nH]c3ccccc23)NC(=O)[C@H](CCCNC(=N)N)NC(=O)[C@@H](Cc2ccccc2)NC(=O)[C@H](Cc2c[nH]cn2)NC1=O [gallium-67 labelled] |  | female C57 mice, B16/F1 melanoma, brain | intravenous, 0.037 MBq, 0.5 h | 0.25 ± 0.07 %ID/g
O=C([O-])c1cccc(CN(CCN(Cc2cn(Cc3ccccc3)nn2)Cc2cccc(C(=O)[O-])n2)Cc2cn(Cc3ccccc3)nn2)n1.[64Cu+2] |  | healthy athymic nude mice, stomach | intravenous, 1 h | 5.93 %ID/g
CC(C)[C@H](NC(=O)[C@@H]1CCCN1C(=O)[C@H](CCCNC(=N)N)NC(=O)[C@H](CS)NC(=O)[C@H](Cc1c[nH]c2ccccc12)NC(=O)[C@H](CCCNC(=N)N)NC(=O)[C@@H](Cc1ccccc1)NC(=O)[C@H](Cc1c[nH]cn1)NC(=O)[C@H](CCC(=O)O)NC(=O)[C@H](CS)NC(=O)[C@H](CS)NC(=O)[C@@H]1CC(=O)N[C@@H](CCCNC(=N)N)C(=O)NCC(=O)N[C@@H](CC(=O)O)C(=O)N[C@H](Cc2ccc(O)cc2)C(=O)N1)C(N)=O [technetium-99m labelled] |  | C57 mice B16/F1 melanoma female, heart | iv, 2 h, with: NDP-MSH 10 µg co-injected | 0.41 ± 0.16 %ID/g
N=C(N)NCCC[C@H](NC(=O)CON=C[C@H](F)[C@@H](O)[C@H](O)[C@H](O)CO)C(=O)NCC(=O)N[C@@H](CC(=O)O)C(=O)O [fluorine-18 labelled] |  | nude mice U-87 MG tumour, bone | intravenous, 0.5 h | 0.29 ± 0.03 %ID/g

Excerpt of the above:
SMILES | test | test system | setting | tissue uptake
CC(C)[C@H](NC(=O)[C@@H]1CCCN1C(=O)[C@H](CCCNC(=N)N)NC(=O)[C@H](CS)NC(=O)[C@H](Cc1c[nH]c2ccccc12)NC(=O)[C@H](CCCNC(=N)N)NC(=O)[C@@H](Cc1ccccc1)NC(=O)[C@H](Cc1c[nH]cn1)NC(=O)[C@H](CCC(=O)O)NC(=O)[C@H](CS)NC(=O)[C@H](CS)NC(=O)CNC(=O)[C@@H]1CC(=O)N[C@@H](CCCNC(=N)N)C(=O)NCC(=O)N[C@@H](CC(=O)O)C(=O)N[C@H](Cc2ccc(O)cc2)C(=O)N1)C(N)=O [technetium-99m labelled] |  | C57 mice B16/F1 melanoma female, intestines | iv, 0.037 MBq, 24 h | 1.44 ± 0.78 %ID
